# Results gathered from unrelated publications.
# Amino acid sequences for entries named in this document (tags omitted). A change or cut given only in a name is not applied to a line headed by its entry. Residues count along the entry.
# UniProt P04150, whole entry: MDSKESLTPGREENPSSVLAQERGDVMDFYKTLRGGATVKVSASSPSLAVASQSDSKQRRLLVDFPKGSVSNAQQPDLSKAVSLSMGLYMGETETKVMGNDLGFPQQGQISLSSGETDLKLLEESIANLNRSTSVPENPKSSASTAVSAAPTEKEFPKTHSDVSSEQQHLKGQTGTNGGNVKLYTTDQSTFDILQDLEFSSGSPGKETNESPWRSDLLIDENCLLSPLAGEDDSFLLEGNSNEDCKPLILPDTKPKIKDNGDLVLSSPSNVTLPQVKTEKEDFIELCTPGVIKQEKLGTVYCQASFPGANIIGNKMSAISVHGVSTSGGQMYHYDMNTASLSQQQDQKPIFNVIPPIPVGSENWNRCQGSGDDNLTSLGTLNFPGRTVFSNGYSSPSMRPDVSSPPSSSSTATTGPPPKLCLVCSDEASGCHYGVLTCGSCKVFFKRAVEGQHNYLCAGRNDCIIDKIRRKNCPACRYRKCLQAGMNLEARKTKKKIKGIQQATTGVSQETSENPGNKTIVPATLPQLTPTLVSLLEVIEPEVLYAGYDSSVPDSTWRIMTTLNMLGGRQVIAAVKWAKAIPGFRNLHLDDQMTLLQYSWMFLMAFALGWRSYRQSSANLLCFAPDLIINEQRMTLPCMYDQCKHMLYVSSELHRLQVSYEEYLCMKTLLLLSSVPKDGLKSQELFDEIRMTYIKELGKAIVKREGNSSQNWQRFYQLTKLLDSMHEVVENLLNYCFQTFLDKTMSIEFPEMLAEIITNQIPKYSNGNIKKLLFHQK
# UniProt P23204, whole entry: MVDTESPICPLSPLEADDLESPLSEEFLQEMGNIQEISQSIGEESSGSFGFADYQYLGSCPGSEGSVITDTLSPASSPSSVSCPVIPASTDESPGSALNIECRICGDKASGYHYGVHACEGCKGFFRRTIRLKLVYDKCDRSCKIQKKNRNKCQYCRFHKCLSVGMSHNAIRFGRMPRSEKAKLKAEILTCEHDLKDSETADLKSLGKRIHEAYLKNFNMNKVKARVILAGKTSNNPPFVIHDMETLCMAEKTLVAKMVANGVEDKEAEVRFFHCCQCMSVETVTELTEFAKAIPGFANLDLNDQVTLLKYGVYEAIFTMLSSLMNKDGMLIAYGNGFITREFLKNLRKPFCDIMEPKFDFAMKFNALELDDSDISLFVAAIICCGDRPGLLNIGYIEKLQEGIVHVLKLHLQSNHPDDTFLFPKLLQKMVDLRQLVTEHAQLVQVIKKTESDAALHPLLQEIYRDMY
# UniProt Q15256, 22-657 limits assumed: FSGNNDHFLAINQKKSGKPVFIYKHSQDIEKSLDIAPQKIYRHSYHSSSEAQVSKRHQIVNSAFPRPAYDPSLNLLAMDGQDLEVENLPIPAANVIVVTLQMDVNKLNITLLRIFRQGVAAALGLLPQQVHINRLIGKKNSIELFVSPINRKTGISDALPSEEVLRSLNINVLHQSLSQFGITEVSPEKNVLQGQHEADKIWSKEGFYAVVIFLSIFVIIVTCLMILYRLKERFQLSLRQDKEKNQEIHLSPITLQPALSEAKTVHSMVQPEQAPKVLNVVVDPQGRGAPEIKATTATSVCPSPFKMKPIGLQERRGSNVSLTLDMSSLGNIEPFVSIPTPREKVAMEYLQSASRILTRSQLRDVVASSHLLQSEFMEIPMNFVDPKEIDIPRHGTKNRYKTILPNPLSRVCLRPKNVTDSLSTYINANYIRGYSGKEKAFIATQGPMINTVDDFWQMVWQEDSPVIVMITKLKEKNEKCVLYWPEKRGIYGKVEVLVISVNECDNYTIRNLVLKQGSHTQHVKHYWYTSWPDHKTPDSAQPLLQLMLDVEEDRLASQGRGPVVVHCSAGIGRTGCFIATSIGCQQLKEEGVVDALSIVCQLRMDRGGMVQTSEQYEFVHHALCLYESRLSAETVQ
# UniProt Q9QWY8, 325-724 limits assumed: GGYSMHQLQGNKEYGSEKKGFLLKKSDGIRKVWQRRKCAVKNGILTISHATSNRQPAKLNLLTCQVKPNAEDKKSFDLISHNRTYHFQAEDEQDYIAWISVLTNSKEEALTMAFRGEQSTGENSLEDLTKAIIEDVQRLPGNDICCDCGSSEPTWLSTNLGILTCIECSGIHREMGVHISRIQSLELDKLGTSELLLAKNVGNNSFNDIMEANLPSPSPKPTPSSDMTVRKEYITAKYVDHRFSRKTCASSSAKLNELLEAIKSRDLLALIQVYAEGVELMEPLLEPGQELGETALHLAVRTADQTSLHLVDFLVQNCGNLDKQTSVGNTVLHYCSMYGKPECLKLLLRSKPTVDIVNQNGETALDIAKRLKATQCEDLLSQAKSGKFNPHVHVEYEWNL
# UniProt P48730, whole entry: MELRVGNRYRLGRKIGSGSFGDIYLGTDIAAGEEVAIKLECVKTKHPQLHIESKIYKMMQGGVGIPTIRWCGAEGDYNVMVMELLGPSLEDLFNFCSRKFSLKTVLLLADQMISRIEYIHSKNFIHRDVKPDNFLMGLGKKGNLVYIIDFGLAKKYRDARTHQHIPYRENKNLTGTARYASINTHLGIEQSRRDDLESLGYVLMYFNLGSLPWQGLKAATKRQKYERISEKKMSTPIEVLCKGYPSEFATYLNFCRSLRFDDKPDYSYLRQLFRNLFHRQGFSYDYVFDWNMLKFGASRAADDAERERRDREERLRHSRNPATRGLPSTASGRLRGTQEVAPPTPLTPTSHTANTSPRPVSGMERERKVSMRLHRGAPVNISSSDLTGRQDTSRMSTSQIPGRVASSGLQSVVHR
# UniProt P50406, whole entry: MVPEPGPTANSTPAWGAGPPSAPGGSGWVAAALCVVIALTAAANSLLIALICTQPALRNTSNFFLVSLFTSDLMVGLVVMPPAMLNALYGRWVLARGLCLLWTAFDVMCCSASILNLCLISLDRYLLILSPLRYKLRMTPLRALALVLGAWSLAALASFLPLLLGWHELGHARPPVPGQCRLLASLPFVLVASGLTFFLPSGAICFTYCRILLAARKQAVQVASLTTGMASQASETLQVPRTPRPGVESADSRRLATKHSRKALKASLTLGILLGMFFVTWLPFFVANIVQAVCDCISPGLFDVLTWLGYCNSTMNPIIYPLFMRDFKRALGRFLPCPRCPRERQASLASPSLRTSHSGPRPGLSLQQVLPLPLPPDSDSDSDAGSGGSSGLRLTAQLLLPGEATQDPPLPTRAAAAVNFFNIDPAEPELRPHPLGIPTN
# UniProt P17706, whole entry: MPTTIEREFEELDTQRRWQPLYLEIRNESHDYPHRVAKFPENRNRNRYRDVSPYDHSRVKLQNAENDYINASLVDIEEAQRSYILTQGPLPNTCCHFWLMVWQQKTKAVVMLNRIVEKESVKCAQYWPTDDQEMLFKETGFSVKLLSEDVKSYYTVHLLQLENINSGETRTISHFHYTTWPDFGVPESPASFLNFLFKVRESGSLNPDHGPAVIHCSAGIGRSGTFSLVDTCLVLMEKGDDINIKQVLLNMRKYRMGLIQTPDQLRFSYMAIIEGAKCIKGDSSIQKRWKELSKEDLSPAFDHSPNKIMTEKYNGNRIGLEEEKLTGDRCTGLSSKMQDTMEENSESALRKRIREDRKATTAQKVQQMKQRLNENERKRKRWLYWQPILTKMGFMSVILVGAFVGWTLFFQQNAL
# UniProt P41743, whole entry: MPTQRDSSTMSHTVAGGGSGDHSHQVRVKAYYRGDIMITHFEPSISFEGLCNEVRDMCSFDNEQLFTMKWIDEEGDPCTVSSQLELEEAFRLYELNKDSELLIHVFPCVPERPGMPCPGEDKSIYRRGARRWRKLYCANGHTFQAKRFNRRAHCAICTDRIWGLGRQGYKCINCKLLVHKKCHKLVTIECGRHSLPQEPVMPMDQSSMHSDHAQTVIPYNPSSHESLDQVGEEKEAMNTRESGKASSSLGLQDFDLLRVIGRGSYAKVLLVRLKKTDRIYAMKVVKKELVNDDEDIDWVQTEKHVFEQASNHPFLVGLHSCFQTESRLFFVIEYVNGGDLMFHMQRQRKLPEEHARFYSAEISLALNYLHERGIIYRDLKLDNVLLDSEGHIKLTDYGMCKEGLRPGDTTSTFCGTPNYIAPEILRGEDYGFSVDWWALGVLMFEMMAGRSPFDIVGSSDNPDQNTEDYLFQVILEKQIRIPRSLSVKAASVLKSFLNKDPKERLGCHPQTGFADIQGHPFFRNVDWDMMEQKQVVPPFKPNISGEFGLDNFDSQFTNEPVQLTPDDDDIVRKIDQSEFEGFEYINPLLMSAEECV
# UniProt Q62666, whole entry: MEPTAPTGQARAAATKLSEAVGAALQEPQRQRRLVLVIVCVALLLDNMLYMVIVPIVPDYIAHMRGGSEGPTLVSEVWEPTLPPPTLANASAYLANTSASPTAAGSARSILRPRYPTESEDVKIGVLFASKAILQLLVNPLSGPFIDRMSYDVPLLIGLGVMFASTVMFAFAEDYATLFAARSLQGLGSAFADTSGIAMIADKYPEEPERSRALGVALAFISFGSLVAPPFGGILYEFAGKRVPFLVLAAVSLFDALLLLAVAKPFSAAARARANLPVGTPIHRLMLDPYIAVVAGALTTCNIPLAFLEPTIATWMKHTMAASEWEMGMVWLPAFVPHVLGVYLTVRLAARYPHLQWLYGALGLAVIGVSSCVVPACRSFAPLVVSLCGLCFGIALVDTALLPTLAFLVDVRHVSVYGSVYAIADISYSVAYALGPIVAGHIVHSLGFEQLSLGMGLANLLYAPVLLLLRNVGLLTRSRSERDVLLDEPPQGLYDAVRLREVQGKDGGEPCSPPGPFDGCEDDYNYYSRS
# UniProt Q8TCT1, 1-292 isoform 3: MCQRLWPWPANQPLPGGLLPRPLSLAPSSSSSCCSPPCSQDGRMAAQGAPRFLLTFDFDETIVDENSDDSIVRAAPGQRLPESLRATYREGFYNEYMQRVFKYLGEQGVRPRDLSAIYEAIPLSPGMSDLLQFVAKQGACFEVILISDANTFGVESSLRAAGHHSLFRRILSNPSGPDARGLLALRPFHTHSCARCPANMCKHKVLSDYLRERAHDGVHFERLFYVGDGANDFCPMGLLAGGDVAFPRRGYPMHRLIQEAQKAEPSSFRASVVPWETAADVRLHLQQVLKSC
# UniProt Q9NRA0, whole entry: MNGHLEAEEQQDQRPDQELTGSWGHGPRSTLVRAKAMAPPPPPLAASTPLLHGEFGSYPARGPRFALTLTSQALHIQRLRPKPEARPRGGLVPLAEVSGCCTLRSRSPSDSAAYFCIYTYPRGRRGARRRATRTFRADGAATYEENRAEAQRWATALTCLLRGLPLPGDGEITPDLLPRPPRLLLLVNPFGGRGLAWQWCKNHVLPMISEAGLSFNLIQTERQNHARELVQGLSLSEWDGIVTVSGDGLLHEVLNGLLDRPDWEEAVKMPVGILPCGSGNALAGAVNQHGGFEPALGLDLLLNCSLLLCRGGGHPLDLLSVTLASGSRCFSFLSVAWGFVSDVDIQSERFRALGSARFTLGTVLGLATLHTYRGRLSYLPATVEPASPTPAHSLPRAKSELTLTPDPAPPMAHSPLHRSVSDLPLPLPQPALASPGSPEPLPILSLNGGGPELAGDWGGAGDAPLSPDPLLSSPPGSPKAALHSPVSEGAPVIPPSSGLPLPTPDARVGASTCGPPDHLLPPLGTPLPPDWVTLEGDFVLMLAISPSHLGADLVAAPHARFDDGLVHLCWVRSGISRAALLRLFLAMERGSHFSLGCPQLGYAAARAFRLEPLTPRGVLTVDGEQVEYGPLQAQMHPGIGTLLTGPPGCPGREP
# UniProt P54829, whole entry: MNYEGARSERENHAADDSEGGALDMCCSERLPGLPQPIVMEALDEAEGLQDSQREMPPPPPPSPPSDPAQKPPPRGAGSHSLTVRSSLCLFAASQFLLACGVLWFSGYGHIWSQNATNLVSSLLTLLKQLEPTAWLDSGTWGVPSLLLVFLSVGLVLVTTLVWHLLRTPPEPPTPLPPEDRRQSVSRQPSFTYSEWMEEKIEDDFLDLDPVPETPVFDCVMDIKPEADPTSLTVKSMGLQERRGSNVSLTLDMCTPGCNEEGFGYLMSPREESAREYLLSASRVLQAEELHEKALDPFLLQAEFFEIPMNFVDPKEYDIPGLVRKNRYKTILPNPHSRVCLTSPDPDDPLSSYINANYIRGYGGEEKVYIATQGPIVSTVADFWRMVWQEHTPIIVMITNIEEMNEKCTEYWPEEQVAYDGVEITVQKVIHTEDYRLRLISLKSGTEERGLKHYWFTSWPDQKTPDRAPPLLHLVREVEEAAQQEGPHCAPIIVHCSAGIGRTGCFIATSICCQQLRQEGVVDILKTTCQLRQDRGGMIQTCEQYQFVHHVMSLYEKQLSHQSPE
# UniProt P35236, whole entry: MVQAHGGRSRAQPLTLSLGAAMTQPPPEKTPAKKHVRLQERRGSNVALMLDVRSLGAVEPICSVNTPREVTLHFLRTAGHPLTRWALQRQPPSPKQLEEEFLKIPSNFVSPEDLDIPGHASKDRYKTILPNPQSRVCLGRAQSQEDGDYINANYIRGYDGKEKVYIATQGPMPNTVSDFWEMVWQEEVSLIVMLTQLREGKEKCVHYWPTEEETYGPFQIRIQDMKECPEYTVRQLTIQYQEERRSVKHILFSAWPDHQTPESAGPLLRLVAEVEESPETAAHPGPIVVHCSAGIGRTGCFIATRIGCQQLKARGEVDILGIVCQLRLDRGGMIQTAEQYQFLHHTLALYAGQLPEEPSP
# Compare with care: the assays were run in different laboratories. Values joined by “and” are separate records of one study, mostly repeats; a detail may differ. ± marks the error that the study gave.
# NR3C1: Glucocorticoid receptor (NR3C1, Homo sapiens, UniProt P04150)
Structure (SMILES),target or system,test,test system,setting,scale,endpoint,value
O=C(O)C(F)(F)F,"Peroxisome proliferator-activated receptor alpha (Ppara, Mus musculus, UniProt P23204)","coactivator recruitment, agonist, biolayer interferometry, item: PGC-1alpha peptide",,"pH 7.4, 25 °C, 0.1% fatty acid-free BSA, sodium salt",,EC50,4900 µM
CC(=O)O[C@H]1CC[C@@]2(C)[C@@H](CC[C@H]3[C@H]2CC(=O)[C@]2(C)[C@@H]3C[C@@H](N3CC3)[C@H]2C(C)=O)C1,NR3C1,"nuclear translocation, agonist, enzyme fragment complementation",,,,EC50,> 9 µM
O=c1/c(=C/c2ccc(-c3ccccc3[N+](=O)[O-])o2)sc2nc3cc(Br)cnc3n12,"Receptor-type tyrosine-protein phosphatase R (PTPRR, Homo sapiens, UniProt Q15256)","phosphatase activity, inhibitor",,added: OMFP,,IC50,41 µM
CCCCCCCC(=O)OCC(COP(=O)(O)OC1C(O)C(O)C(OP(=O)(O)O)C(OP(=O)(O)O)C1O)OC(=O)CCCCCCC (stereo not shown),"Arf-GAP with SH3 domain, ANK repeat and PH domain-containing protein 1 (Asap1, Mus musculus, UniProt Q9QWY8)","GAP activity, activator",,"15% phosphatidylserine, added: myrArf1·GTP substrate",,EC50,8 µM
Fc1cccc(-n2cnc3c(NCc4nc5cc(Cl)ccc5[nH]4)nc(N4CCNCC4)nc32)c1,"Casein kinase I isoform delta (CSNK1D, Homo sapiens, UniProt P48730)",KINOMEscan competition binding,,10 µM,relative to: control,remaining binding,1.6%
CN1CCN(c2ccc3c(c2)[C@H]2C[C@H]3CCN2S(=O)(=O)c2cc(Cl)cc(Cl)c2)CC1,"5-hydroxytryptamine receptor 6 (HTR6, Homo sapiens, UniProt P50406)",radioligand competition binding,,,,Ki,0.082 µM
C[C@@]12CC(=O)[C@@H]3[C@@H](CCC4=CC(=O)CC[C@]43C)[C@@H]1CC=C2CC(=O)O,NR3C1,"nuclear translocation, agonist, enzyme fragment complementation",,,,EC50,> 9 µM
CCN1CCN(Cc2ccc(NC(=O)c3ccc(C)c(Oc4ncnc5cc(OC)c(OC)cc45)c3)cc2C(F)(F)F)CC1,"Serine/threonine-protein kinase TAO3 (TAOK3, Homo sapiens, UniProt Q9H2K8)","enzyme activity, Z'-LYTE",,added: ATP at Km,,IC50,0.509 µM
COc1cc(CC(=O)NCC(NC(=O)C(CCCNC(=O)c2cccc(I)c2)NC(=O)C(Cc2ccc(C(F)(F)P(=O)(O)O)cc2)NC(=O)c2ccc(C)c(Br)c2)C(N)=O)ccc1O (stereo not shown),"Tyrosine-protein phosphatase non-receptor type 2 (PTPN2, Homo sapiens, UniProt P17706)","enzyme activity, inhibitor",,,,Ki,0.6 µM
C[C@H](CCC(=O)O)[C@H]1CC[C@@H]2[C@H]3CC[C@H]4C[C@H](O)CC[C@@]4(C)[C@@H]3CC[C@@]21C,NR3C1,"nuclear translocation, agonist, enzyme fragment complementation",,,,EC50,> 9 µM
Nc1c(N=Nc2ccc(SSc3ccc(N=Nc4cc(S(=O)(=O)O)c5ccccc5c4N)cc3)cc2)cc(S(=O)(=O)O)c2ccccc12,"Cystine/glutamate transporter, with SLC3A2 (SLC7A11, Homo sapiens, UniProt Q9UPY5)","L-glutamate uptake, inhibitor",SNB-19,added: 3H-L-glutamate,,Ki,4.3 µM and ~4 µM
O=C1CCC(N2C(=O)c3cccc(NCCOCCOCCOCCN4CCN(c5ccc(-c6ccc7c(c6)C(=O)N(C(C(=O)Nc6nccs6)c6ccccc6)C7)cn5)CC4)c3C2=O)C(=O)N1 (stereo not shown),"Epidermal growth factor receptor (EGFR, Homo sapiens, UniProt P00533, L858R/T790M)","degrader, Western blot",Ba/F3 EGFR L858R/T790M,"0.1 µM, 24 h",relative to: DMSO,remaining protein level,44%
C[C@H]1[C@H](C)CC[C@]2(C(=O)O)CC[C@]3(C)C(=CC[C@@H]4[C@]5(C)C[C@H](O)[C@@H](O)[C@@](C)(CO)[C@@H]5[C@H](O)C[C@@]43C)[C@H]12,NR3C1,"nuclear translocation, agonist, enzyme fragment complementation",,,,EC50,> 9 µM
O=C1C=C(NCCc2cc(Br)c(O)c(Br)c2)C(=O)c2ncccc21,"Protein kinase C iota type (PRKCI, Homo sapiens, UniProt P41743)",SPR,,,,Kd,58.1 µM
Fc1cc(-c2ccc3c(n2)[nH]c2ccncc23)ccn1 [isotope labelled],"Microtubule-associated protein tau, paired helical filaments (MAPT, Homo sapiens, UniProt P10636)",radioligand binding,PHF tau brain homogenate,72.89 nM,higher = more binding,specific binding,20.1 a.u.
CN1C/C(=C\c2ccccn2)C(=O)[C@@H](Cc2ccccn2)C1,"Vascular endothelial growth factor receptor 2 (KDR, Homo sapiens, UniProt P35968)","enzyme activity, inhibitor, Z'-LYTE",,,,IC50,> 100 µM
Cc1c(O)cc2c(c1C)O[C@](C)(CCCC(C)C)CC2,,bioluminescence,"athymic nude mouse, PC-3-luc xenograft","intraperitoneal, 50 mg/kg daily, 21 days",relative to: vehicle,tumour growth,inhibited
"CC1=Cc2ccccc2C12CCN(C1Cc3ccccc3CC1O)CC2 (single isomer, unassigned)","Vesicular acetylcholine transporter (Rattus norvegicus, UniProt Q62666)","binding, radioligand displacement",PC12 expressing VAChT,added: [3H]vesamicol,,Ki,0.016 ± 0.004 µM
CN(C)S(=O)(=O)c1cccc(-n2sc3ccccc3c2=O)c1,"Phosphoethanolamine/phosphocholine phosphatase (Homo sapiens, UniProt Q8TCT1)","enzyme activity, inhibitor",,added: phosphoethanolamine,,Ki,0.22 ± 0.01 µM
O=C1C(=Cc2ccc(O)c(O)c2)Oc2ccccc21,"Sphingosine kinase 2 (SPHK2, Homo sapiens, UniProt Q9NRA0)","inhibitor, TLC",,,,Ki,18 µM
CC(C)C1=C[C@@]23CC[C@@H]4[C@](C)(CCC[C@@]4(C)C(=O)O)[C@@H]2C[C@@H]1[C@@H](C(=O)O)[C@@H]3C(=O)O,NR3C1,"nuclear translocation, agonist, enzyme fragment complementation",,,,EC50,> 9 µM
Cc1cc(C)c2nc3s/c(=C\c4ccc(-c5ccccc5C(=O)O)o4)c(=O)n3c2c1,"Tyrosine-protein phosphatase non-receptor type 5 (PTPN5, Homo sapiens, UniProt P54829)","phosphatase activity, inhibitor",,added: OMFP,,IC50,~100 µM
CC(=O)O/C(=C1/C[C@H]2[C@@H]3CC=C4C[C@@H](OC(C)=O)CC[C@]4(C)[C@@H]3CC[C@]2(C)C1=O)C(F)(F)F,NR3C1,"nuclear translocation, agonist, enzyme fragment complementation",,,,EC50,> 9 µM
O=c1/c(=C/c2ccccc2Cl)sc2nc3cc(Br)cnc3n12,"Tyrosine-protein phosphatase non-receptor type 22 (PTPN22, Homo sapiens, UniProt Q9Y2R2)","phosphatase activity, inhibitor",,added: OMFP,,IC50,> 100 µM
C[C@@]12C[C@H](O)C3[C@H](CCC4=CC(=O)CC[C@]43C)[C@H]1CC[C@@H]2c1csc(N)n1 (stereo partly shown),NR3C1,"nuclear translocation, agonist, enzyme fragment complementation",,,,EC50,> 9 µM
CC[C@@H]1C(=O)N(C)c2cnc(Nc3ccc(C(=O)NC4CCN(C)CC4)cc3OC)nc2N1C1CCCC1,"Bromodomain-containing protein 3, BD1 (BRD3, Homo sapiens, UniProt Q15059)",,,10 µM,,delta Tm,4.88 ± 0.25 °C
O=c1/c(=C/c2ccc(-c3cc(Cl)cc(Cl)c3)o2)sc2nc3cc(Br)cnc3n12,"Tyrosine-protein phosphatase non-receptor type 7 (PTPN7, Homo sapiens, UniProt P35236)","phosphatase activity, inhibitor",,added: OMFP,,IC50,5.7 µM
O=C(Nc1cccnn1)N1CC(Oc2ccc(-c3ccccc3F)cn2)C1,,item: plasma endocannabinoids,"human, plasma","oral, single dose",,time to return to baseline,72 h

# For quick reference, copied from above:
Structure (SMILES),target or system,test,test system,setting,scale,endpoint,value
CC(C)C1=C[C@@]23CC[C@@H]4[C@](C)(CCC[C@@]4(C)C(=O)O)[C@@H]2C[C@@H]1[C@@H](C(=O)O)[C@@H]3C(=O)O,NR3C1,"nuclear translocation, agonist, enzyme fragment complementation",,,,EC50,> 9 µM
O=C(O)C(F)(F)F,"Peroxisome proliferator-activated receptor alpha (Ppara, Mus musculus, UniProt P23204)","coactivator recruitment, agonist, biolayer interferometry, item: PGC-1alpha peptide",,"pH 7.4, 25 °C, 0.1% fatty acid-free BSA, sodium salt",,EC50,4900 µM
C[C@@]12C[C@H](O)C3[C@H](CCC4=CC(=O)CC[C@]43C)[C@H]1CC[C@@H]2c1csc(N)n1 (stereo partly shown),NR3C1,"nuclear translocation, agonist, enzyme fragment complementation",,,,EC50,> 9 µM
COc1cc(CC(=O)NCC(NC(=O)C(CCCNC(=O)c2cccc(I)c2)NC(=O)C(Cc2ccc(C(F)(F)P(=O)(O)O)cc2)NC(=O)c2ccc(C)c(Br)c2)C(N)=O)ccc1O (stereo not shown),"Tyrosine-protein phosphatase non-receptor type 2 (PTPN2, Homo sapiens, UniProt P17706)","enzyme activity, inhibitor",,,,Ki,0.6 µM
